Published values of several laboratories.
Numbered parts are unrelated; each lists some results of a single study.

Study 1 — method: universal PBM; form: double-stranded DNA, one strand shown; sample: in vitro; concentration: not given; reading: higher = stronger binding
Target: Sal-like protein 4, full length isoform B (SALL4, Homo sapiens, UniProt Q9UJQ4-2, residues 1-616)
Setting: 8-mer, flanks averaged, mean of replicates
The E-score of `GGCTATAA` is reported as 0.217.
For `ACAACGAT`, the E-score was 0.196.
The E-score of `AGATCTGG` is reported as -0.191.
`AATGCCGG` has an E-score of -0.179.
With `AAAAGAGT` the E-score was 0.035.
`CTTGGTCC` gave an E-score of -0.221.
With `AGATTGAG` the E-score was 0.107.
The E-score of `AGTAGATG` is reported as 0.185.
The E-score of `GCCACCGC` is reported as -0.29.
`CCTTTATC` has an E-score of 0.131.
`AAAGACCA` gave an E-score of -0.0282.
With `ACAAGCCG` the E-score was -0.15.
With `TACAACCA` the E-score was 0.122.
`AGGTCGAA` has an E-score of -0.0604.
For `GCTCATGA`, the E-score was -0.0615.
The E-score of `ACTTCCTG` is reported as -0.0983.
With `ACGTTCTG` the E-score was -0.149.
With `CAAAAGCG` the E-score was -0.0863.
For `CGAACGCA`, the E-score was -0.0253.
For `AGCAGATC`, the E-score was 0.0543.
The E-score of `AAACTGGA` is reported as 0.0772.
For `TGAATTCA`, the E-score was 0.221.
With `AGGTTTAG` the E-score was -0.0948.
For `TCCGTTAA`, the E-score was -0.0597.

Study 2 — method: protein binding microarray; form: double-stranded DNA, one strand shown; sample: in vitro; concentration: not given; reference: not given; reading: higher = stronger binding
Target: Histone acetyltransferase KAT6A, both winged helices, GST fusion (KAT6A, Homo sapiens, UniProt Q92794, residues 1-181)
Setting: 8-mer, flanks averaged, mean of 2 arrays, mostly near background
Residues (chain): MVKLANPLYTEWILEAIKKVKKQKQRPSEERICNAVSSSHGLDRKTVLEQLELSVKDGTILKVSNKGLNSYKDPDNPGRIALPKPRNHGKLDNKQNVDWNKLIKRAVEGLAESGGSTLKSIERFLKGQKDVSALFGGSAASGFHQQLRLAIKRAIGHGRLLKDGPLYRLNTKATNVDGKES
With `GAAGCTCC` the E-score was 0.0842.
`AGCAGCCA` has an E-score of -0.141.
The E-score of `TGCAGTAA` is reported as -0.119.
`ATCTTGCA` gave an E-score of 0.0408.
For `AAAGTTCA`, the E-score was -0.0889.
For `ACCTCTAC`, the E-score was -0.0822.
With `CGCAGGTC` the E-score was 0.0548.
For `GCTCGCAA`, the E-score was 0.0266.
`CAGAAGGG` gave an E-score of -0.12.
For `ACGCCTGC`, the E-score was -0.0543.
`CCTACTCG` gave an E-score of -0.0637.
The E-score of `GAGATAGC` is reported as -0.0759.
`ATGTACCA` has an E-score of -0.0928.
For `GGTGCCGA`, the E-score was 0.241.
With `GACGGTAC` the E-score was 0.227.
`AGATAAAA` has an E-score of -0.0345.
`CGTAGGGA` has an E-score of 0.0158.
For `CAAAGACA`, the E-score was -0.176.
The E-score of `CGATAAAC` is reported as 0.104.
The E-score of `AAATGCCG` is reported as 0.223.
The E-score of `CGATAGAC` is reported as 0.0587.
With `ATACAACC` the E-score was 0.227.
The E-score of `CTAAAGGC` is reported as -0.0791.
`CTCGTACA` has an E-score of -0.106.

Study 3 — method: protein-binding microarray; form: double-stranded DNA, one strand shown; sample: in vitro; concentration: 940 nM top; setting: 60-bp whole probe; together with: salmon DNA 0.4 mg/ml; reference: random background probes; reading: higher = stronger binding; all sequences stand within: GCCTAGCAC … GTCTTGATTCGCTTGACGCTGCTG
Target: Interferon regulatory factor 5, full length, phosphomimetic (IRF5, Homo sapiens, UniProt Q13568-2, residues 1-514, S451D/S453D/S456D/S462D)
For `ATAGATTTCAGTATCGATTAGTGCTAG`, “fitted relative affinity” read 5.87 z-score.
For `GACGATCTCAGTTTCGAGATGTGCTAG`, “fitted relative affinity” read 3.63 z-score.
Under “fitted relative affinity”, `GACGGTATCGGACTGGGCACGTGCTAG` is recorded as 2.1 z-score.
`TTAGGTCCCCTTTTCCTTTAGTGCTAG`: “fitted relative affinity” 0.52 z-score.
`TTAGATATCAGCTTCGATTAGTGCTAG`: “fitted relative affinity” -0.121 z-score.
`AGAGATTTCAGGAATTGAAAAGTGCTA`: “fitted relative affinity” -0.437 z-score.
`GATGATATCAGTTTCGAGACGTGCTAG`: “fitted relative affinity” 4.06 z-score.
Under “fitted relative affinity”, `GACAGTTTCGGTTTCGGGACGTGCTAG` is recorded as 14.8 z-score.
For `GACGGTATCGGGTTACGGGACGTGCTA`, “fitted relative affinity” read 5.49 z-score.
`TTAGGTATCGGACTGAGTTAGTGCTAG` — result for “fitted relative affinity”: 3.43 z-score.
`TCAAAACTCGTATGTGACACTGTGCTA` — result for “fitted relative affinity”: 0.0187 z-score.
`TTAGGTTTCGACACGGGGTTAGTGCTA` — result for “fitted relative affinity”: 8.98 z-score.
`GACGATTCAAGTTTCGAGACGTGCTAG`: “fitted relative affinity” 3.13 z-score.
Under “fitted relative affinity”, `CATATATTCACTATAGTGTGGTGCTAG` is recorded as -0.0736 z-score.
Under “fitted relative affinity”, `GACGGTATCCTTTTCCTGAGGTGCTAG` is recorded as 0.352 z-score.
For `TTAGGACTGGTTATCGGTTAGTGCTAG`, “fitted relative affinity” read 0.203 z-score.
`AACGGTATCGGGTATCGGGACGTGCTA` — result for “fitted relative affinity”: 6.31 z-score.
`TTAGGTCTCGGTTTGGGTTAGTGCTAG` — result for “fitted relative affinity”: 5.57 z-score.
`TTAAATTTCAGTATCGATTAGTGCTAG` — result for “fitted relative affinity”: 6.66 z-score.

Study 4 — method: RNA Bind-n-Seq; form: RNA; sample: in vitro; concentration: 365 nM; reference: no-protein control; reading: higher = stronger binding
Target: RNA binding protein fox-1 homolog 2, RRM domain, GST-SBP tag (RBFOX2, Homo sapiens, UniProt O43251-10, residues 100-194)
Setting: natural RNA segment, single round, ends assumed
Construct (chain): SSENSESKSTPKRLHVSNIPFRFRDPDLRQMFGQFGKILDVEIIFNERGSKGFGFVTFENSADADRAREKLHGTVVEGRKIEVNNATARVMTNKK
`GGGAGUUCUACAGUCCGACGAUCUUGGAUCGCUUUUGUGACUGUUCAUCUGUCCUUGACAGUGGCUGUCAUCUUGACUACUUUGUUGAUUUGUUGGUAUUGGGGACAUUUUAAAGGCUGAGUUAUUUUUGAAUUGGAAUUCUCGGGUGCCAA` — result for “RBNS enrichment (R)”: 0.944.
`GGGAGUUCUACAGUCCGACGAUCACCAUGCUGGCCAGGCUGGUCUCGAACUCCUGACCUCAGGUGAUCCCCCCCACCUCAGCCUCCCAAAGUGCUGGGAUUACAGGCGUGAGGCAUCACACCUGCCUCUGUUGUGGAAUUCUCGGGUGCCAA`: “RBNS enrichment (R)” 0.199.
`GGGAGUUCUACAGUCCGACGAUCGGGGAAAGGCCCUGCCAAUGUUUAACUUUUAAAAGCAUCUUAUCUAAAAGAAAGGCUAUCCAGUAGAGCCCAGUGCUCCCUUGUCCCUCUUUUAUGAUCAGGGUGAAAUGUGGAAUUCUCGGGUGCCAA`: “RBNS enrichment (R)” 0.662.
`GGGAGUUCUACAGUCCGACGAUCCCCUGGGCUUCGUGAAAUGGCACAGUCAUUGGUAAUCUUCAAAAAGCCAGAAGCCCAGGACCUCCUUUUUGCACCAGCCUAUUUGAUAGUCCUAUAUUUUUAAAGCACACUGGAAUUCUCGGGUGCCAA`: “RBNS enrichment (R)” 0.542.
`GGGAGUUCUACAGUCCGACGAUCCAUCAGUAGGUAAAAUACAUAAUGUUACAUAGUGUAAUAUGAUAUGAUGUGAUUAAAUUAUAGUUCCUGCUGUUAAAUUGCCUUUUGAAAACUUGGCUCCAGGGUUGGUGUGGAAUUCUCGGGUGCCAA`: “RBNS enrichment (R)” 0.7.
For `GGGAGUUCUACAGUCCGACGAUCUGAAUUUGGGCUCAAUCCAUAAUUUUUGACAUUUUCACAAAAAUAUGGUUUGCACUUUUUAAUCUAAAUUCAUCCCUUCUAAGUGAGGUUUGCUCAUACAGCAUUUGGAUUGGAAUUCUCGGGUGCCAA`, “RBNS enrichment (R)” read 0.419.
`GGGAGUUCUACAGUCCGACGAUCCUGUUUGGAUUUAUAUCCCUCUAAUGUUCUCCUUUAAUUUCACAUGAAAAAAAAAUCUCCUGUAUUUUUUUCAGUUAGUGGGAGAGCAGCAGAAAUAGAUAGAUGUGCUGUGGAAUUCUCGGGUGCCAA`: “RBNS enrichment (R)” 0.438.
`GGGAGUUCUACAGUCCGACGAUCACCUCUGGGAUCACGUUGAGUUCUAUUUAUUUAUUUACUUAUUUAUUUAUUUGUACCCACCCUUCCCUCACUUCUGCCCAGCUGGGCUCCAGAGAGAGGACCCUGCCCAUUGGAAUUCUCGGGUGCCAA`: “RBNS enrichment (R)” 0.318.

For quick reference, copied from above (study 3):
`TTAGATATCAGCTTCGATTAGTGCTAG`: “fitted relative affinity” -0.121 z-score.
`AGAGATTTCAGGAATTGAAAAGTGCTA`: “fitted relative affinity” -0.437 z-score.
`GATGATATCAGTTTCGAGACGTGCTAG`: “fitted relative affinity” 4.06 z-score.
Under “fitted relative affinity”, `GACAGTTTCGGTTTCGGGACGTGCTAG` is recorded as 14.8 z-score.
For `GACGGTATCGGGTTACGGGACGTGCTA`, “fitted relative affinity” read 5.49 z-score.
`TTAGGTATCGGACTGAGTTAGTGCTAG` — result for “fitted relative affinity”: 3.43 z-score.
`TCAAAACTCGTATGTGACACTGTGCTA` — result for “fitted relative affinity”: 0.0187 z-score.
`TTAGGTTTCGACACGGGGTTAGTGCTA` — result for “fitted relative affinity”: 8.98 z-score.
`GACGATTCAAGTTTCGAGACGTGCTAG`: “fitted relative affinity” 3.13 z-score.
Under “fitted relative affinity”, `CATATATTCACTATAGTGTGGTGCTAG` is recorded as -0.0736 z-score.
